Measured values collected from several papers.
Each line is one published result; not all experiments were run side by side. ± marks the error that the study gave.
B1: protein (Bacteroides thetaiotaomicron, UniProt Q8A711); chain MKNTYIIGEIGQNHNGSVDLAKLIIELISRPVHEDVFGMDFMPMNAVKMTKRDLSEELAVSQMNQIYDNPNSFGRTYGEHRAFLELDDQAHFEIYKYAKSLGLDFIETLCAKGCLSLLKLFTPDRLKVASRDLTNLPLLEALAETHIPIILSTGMAGQRELDNALDVITRYHSNIAILHCVSQYPTHPNNLNLRTITYLKKHYNKFEIGFSDHTIGISAATAAVAMGAEIIEKHVTIDRHMKGTDQLGSLGPDGVNRMIRDIRIAECWLGTEDLYIEKGVEKSKIKLERSIATRKYIPAGSIIQESDIHLLSPGDGYKWIDKKNVIGHFAKQDISANEIIYPDFIE
B2: susB (Bacteroides thetaiotaomicron, UniProt G8JZS4); chain QQKLTSPDNNLVMTFQVDSKGAPTYELTYKNKVVIKPSTLGLELKKEDNTRTDFDWVDRRDLTKLDSKTNLYDGFEVKDTQTATFDETWQPVWGEEKEIRNHYNELAVTLYQPMNDRSIVIRFRLFNDGLGFRYEFPQQKSLNYFVIKEEHSQFGMNGDHIAFWIPGDYDTQEYDYTISRLSEIRGLMKEAITPNSSQTPFSQTGVQTALMMKTDDGLYINLHEAALVDYSCMHLNLDDKNMVFESWLTPDAKGDKGYMQTPCNTPWRTIIVSDDARNILASRITLNLNEPCKIADAASWVKPVKYIGVWWDMITGKGSWAYTDELTSVKLGETDYSKTKPNGKHSANTANVKRYIDFAAAHGFDAVLVEGWNEGWEDWFGNSKDYVFDFVTPYPDFDVKEIHRYAARKGIKMMMHHETSASVRNYERHMDKAYQFMADNGYNSVKSGYVGNIIPRGEHHYGQWMNNHYLYAVKKAADYKIMVNAHEATRPTGICRTYPNLIGNESARGTEYESFGGNKVYHTTILPFTRLVGGPMDYTPGIFETHCNKMNPANNSQVRSTIARQLALYVTMYSPLQMAADIPENYERFMDAFQFIKDVALDWDETNYLEAEPGEYITIARKAKDTDDWYVGCTAGENGHTSKLVFDFLTPGKQYIATVYADAKDADWKENPQAYTIKKGILTNKSKLNLHAANGGGYAISIKEVKDKSEAKGLKRL
B3: enzyme (Listeria monocytogenes, UniProt Q8Y7B6); chain MSFDVLTINPGSTSTKLAVYQGDKVLFEETVRHTMQELADFNNVQEQFDFRWQVLRRVMDAHGYDVKKLQAVVGRGGLLRPVAGGTYMVTEKMIDDLKENKYGEHASNLGAMLAKKLADELTIPSFIVDPVVVDEMQEIARISGNAFVTRKSIFHALNHKAAGRKIAKELGKDYEKMNFVIAHLGGGISVAAHRQGKAVDVNNALDGDGPFSPERSGSLPMNDFLEACFSGKWTKRELHELIVGRGGMISYLGTNSMLEVEAKVQAGEEKAIEAFDAMAYQVSKEIGACSVVLQGKVDAIILTGGLARSELFTSKIIEQTNWITSVIIEPGEDELEALNSGVQRVLAGLEKEKEY
B4: HNRNPA1 186-320 low-complexity domain; chain GSMASASSSQRGRSGSGNFGGGRGGGFGGNDNFGRGGNFSGRGGFGGSRGGGGYGGSGDGYNGFGNDGSNFGGGGSYNDFGNYNNQSSNFGPMKGGNFGGRSSGPYGGGGQYFAKPRNQGGYGGSSSSSSYGSGRRF
B5: enzyme (Bacteroides thetaiotaomicron, UniProt Q8A947); chain MIKNIVFDFGGVIVDIDRDKAVQAFIKLGLADADTRLDKYHQTGIFQELEEGKLSADEFRKQLGDLCGRELTMEETKQAWLGFFNEVDLRKLDYILGLRKSYHVYLLSNTNPFVMSWACSPEFSSEGKPLNDYCDKLYLSYQLGHTKPAPEIFDFMIKDSHVIPSETLFVDDGSSNIHIGKELGFETFQPENGADWRQELTVILNS
B6: ZDHHC20 (Homo sapiens, UniProt Q5W0Z9); chain MAPWTLWRCCQRVVGWVPVLFITFVVVWSYYAYVVELCVFTIFGNEENGKTVVYLVAFHLFFVMFVWSYWMTIFTSPASPSKEFYLSNSEKERYEKEFSQERQQEILRRAARALPIYTTSASKTIRYCEKCQLIKPDRAHHCSACDSCILKMDHHCPWVNNCVGFSNYKFFLLFLLYSLLYCLFVAATVLEYFIKFWTNELTDTRAKFHVLFLFFVSAMFFISVLSLFSYHCWLVGKNRTTIESFRAPTFSYGPDGNGFSLGCSKNWRQVFGDEKKYWLLPIFSSLGDGCSFPTRLVGMDPEQASVTNQNEYARSSGSNQPFPIKPLSESKNRLLDSESQWLENGAEEGIVKSGTNNHVTVAIEN
B7: DMGDH H109R (Homo sapiens, UniProt Q9UI17); chain ETVIIGGGCVGVSLAYHLAKAGMKDVVLLEKSELTAGSTWHAAGLTTYFHPGINLKKIRYDSIKLYEKLEEETGQVVGFHQPGSIRLATTPVRVDEFKYQMTRTGWHATEQYLIEPEKIQEMFPLLNMNKVLAGLYNPGDGHIDPYSLTMALAAGARKCGALLKYPAPVTSLKARSDGTWDVETPQGSMRANRIVNAAGFWAREVGKMIGLEHPLIPVQHQYVVTSTISEVKALKRELPVLRDLEGSYYLRQERDGLLFGPYESQEKMKVQDSWVTNGVPPGFGKELFESDLDRIMEHIKAAMEMVPVLKKADIINVVNGPITYSPDILPMVGPHQGVRNYWVAIGFGYGIIHAGGVGKYLSDWILHGEPPFDLIELDPNRYGKWTTTQYTEAKARESYGFNNIVGYPKEERFAGRPTQRVSGLYQRLESKCSMGFHAGWEQPHWFYKPGQDTQYRPSFRRTNWFEPVGSEYKQVMQRVAVTDLSPFGKFNIKGQDSIRLLDHLFANVIPKVGFTNISHMLTPKGRVYAELTVSHQSPGEFLLITGSGSELHDLRWIEEEAVKGGYDVEIKNITDELGVLGVAGPQARKVLQKLTSEDLSDDVFKFLQTKSLKVSNIPVTAIRISYTGELGWELYHRREDSVALYDAIMNAGQEEGIDNFGTYAMNALRLEKAFRAWGLEMNCDTNPLEAGLEYFVKLNKPADFIGKQALKQIKAKGLKRRLVCLTLATDDVDPEGNESIWYNGKVVGNTTSGSYSYSIQKSLAFAYVPVQLSEVGQQVEVELLGKNYPAVIIQEPLVLTEPTRNRLQKKGGKDKT
B8: GLTSCR2/Tat fusion 241-478; chain APAGASYNPSFEDHQTLLSAAHEVELQRQKEAEKLERQLALPATEQAATQESTFQELCEGLLEESDGEGEPGQGEGPEAGDAEVCPTPARLATTEKKTEQQRRREKAVHRLRVQQAALRAARLRHQELFRLRGIKAQVALRLAELARRQRRRQARREAEADKPRRLGRLKYQAPDIDVQLSSELTDSLRTLKPEGNILRDRFKSFQRRNMIEPRERAKFKRKYKVKLVEKRAFREIQLGGSRYGRKKRRQRRR
Chain of UniProt P13501 (whole entry, looked up): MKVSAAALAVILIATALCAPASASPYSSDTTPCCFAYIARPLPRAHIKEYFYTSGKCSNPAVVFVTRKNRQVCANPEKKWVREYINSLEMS
Chain of UniProt Q8A1G0 (whole entry, unmodified, looked up): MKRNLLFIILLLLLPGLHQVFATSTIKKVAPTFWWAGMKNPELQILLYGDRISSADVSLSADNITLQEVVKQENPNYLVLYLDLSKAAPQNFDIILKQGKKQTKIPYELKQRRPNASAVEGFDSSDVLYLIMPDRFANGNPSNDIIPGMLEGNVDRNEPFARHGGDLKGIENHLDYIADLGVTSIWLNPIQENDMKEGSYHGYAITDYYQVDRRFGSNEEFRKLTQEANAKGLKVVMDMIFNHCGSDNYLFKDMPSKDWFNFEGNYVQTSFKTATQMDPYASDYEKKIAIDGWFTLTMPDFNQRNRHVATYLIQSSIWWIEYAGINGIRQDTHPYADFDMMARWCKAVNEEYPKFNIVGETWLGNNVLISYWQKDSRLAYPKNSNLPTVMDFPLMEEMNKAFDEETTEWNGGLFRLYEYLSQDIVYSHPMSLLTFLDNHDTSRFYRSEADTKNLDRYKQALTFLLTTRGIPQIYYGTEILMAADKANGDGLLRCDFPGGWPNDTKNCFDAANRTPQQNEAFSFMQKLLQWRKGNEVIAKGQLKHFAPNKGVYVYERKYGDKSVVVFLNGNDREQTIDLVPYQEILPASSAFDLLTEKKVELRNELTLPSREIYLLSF

susA (Bacteroides thetaiotaomicron, UniProt Q8A1G0)  kcat/Km (O=[N+]([O-])c1ccc(O[C@H]2O[C@H](CO)[C@@H](O[C@H]3O[C@H](CO)[C@@H](O[C@H]4O[C@H](CO)[C@@H](O[C@H]5O[C@H](CO)[C@@H](O[C@H]6O[C@H](CO)[C@@H](O[C@H]7O[C@H](CO)[C@@H](O)[C@H](O)[C@H]7O)[C@H](O)[C@H]6O)[C@H](O)[C@H]5O)[C@H](O)[C@H]4O)[C@H](O)[C@H]3O)[C@H](O)[C@H]2O)cc1; steady-state kinetics; pH 7): 120000 M⁻¹ s⁻¹
GluA2/TARP γ-8 (x)  kainate efficacy (Gria1 (Rattus norvegicus, UniProt P19490-2); patch clamp; HEK293T; added: philanthotoxin; reference: glutamate current, higher = greater efficacy): 30.7%
pegcetacoplan  number of TEAEs (item: injury, poisoning, procedural complications; patients with PNH; dose not given, phase Ib trial): 7
B1 (protein)  kcat (C=C(OP(=O)(O)O)C(=O)O; steady-state kinetics; pH 7.5, 25 °C, added: mannose 6-phosphate 3 mM): 0.0167 ± 0.00167 s⁻¹
HY6-F9 chimeric IgG1 L309D/Q311H/N434S (Homo sapiens)  Kd (FCGRT/B2M FcRn (Homo sapiens); BLI): 3.63 ± 0.1 nM
enzyme (Bacteroides thetaiotaomicron, UniProt Q89YZ9)  kcat (O=[N+]([O-])c1ccc(O[C@H]2O[C@H](CO)[C@@H](O)[C@H](O)[C@H]2O)cc1; steady-state kinetics; pH 6.6): 48.6 ± 2.5 s⁻¹
HY6-F9 chimeric IgG1 M252Y/S254T/T256E (Homo sapiens)  Kd (FCGRT/B2M FcRn (Homo sapiens); BLI): 2.72 ± 0.06 nM
CCL5 mature (UniProt P13501)  EC50 (CCR5 (Homo sapiens, UniProt P51681); calcium mobilization, agonist; HOS-CCR5; Gqi5 transfected): 155 nM
B2 (susB)  kcat/Km (O=[N+]([O-])c1ccc(O[C@H]2O[C@H](CO)[C@@H](O)[C@H](O)[C@H]2O)cc1; steady-state kinetics; pH 6.6): 269000 M⁻¹ s⁻¹
B3 (enzyme)  kcat/Km (CCC(CC)C(=O)O; steady-state kinetics; pH 7.5, 37 °C): 6.67 M⁻¹ s⁻¹
B4  binding (itself; centrifugation, DIC microscopy): binds
B5 (enzyme)  Km (Nc1c(NC[C@H](O)[C@H](O)[C@H](O)COP(=O)(O)O)[nH]c(=O)[nH]c1=O; steady-state kinetics; pH 7.5, 25 °C): 100 µM
B6 (ZDHHC20)  Km (CCCCCCCCCCCCCCCC(=O)SCCNC(=O)CCNC(=O)[C@H](O)C(C)(C)COP(=O)(O)OP(=O)(O)OC[C@H]1O[C@@H](n2cnc3c(N)ncnc32)[C@H](O)[C@@H]1OP(=O)(O)O; steady-state kinetics; pH 7.4, 30 °C): 2.53 µM
B7 (DMGDH H109R)  kcat (CN(C)CC(=O)O; steady-state kinetics; pH 7.5, 25 °C, single Km, mutant, no THF, added: ferricenium hexafluorophosphate 200 µmol/L): 0.01 ± 0.00917 s⁻¹
B8 (GLTSCR2/Tat fusion 241-478)  subunits per oligomer (itself; SEC; pH 8.0): 2

For quick reference, copied from above:
susA (Bacteroides thetaiotaomicron, UniProt Q8A1G0)  kcat/Km (O=[N+]([O-])c1ccc(O[C@H]2O[C@H](CO)[C@@H](O[C@H]3O[C@H](CO)[C@@H](O[C@H]4O[C@H](CO)[C@@H](O[C@H]5O[C@H](CO)[C@@H](O[C@H]6O[C@H](CO)[C@@H](O[C@H]7O[C@H](CO)[C@@H](O)[C@H](O)[C@H]7O)[C@H](O)[C@H]6O)[C@H](O)[C@H]5O)[C@H](O)[C@H]4O)[C@H](O)[C@H]3O)[C@H](O)[C@H]2O)cc1; steady-state kinetics; pH 7): 120000 M⁻¹ s⁻¹
B2 (susB)  kcat/Km (O=[N+]([O-])c1ccc(O[C@H]2O[C@H](CO)[C@@H](O)[C@H](O)[C@H]2O)cc1; steady-state kinetics; pH 6.6): 269000 M⁻¹ s⁻¹
